Published values from different studies.
A part holds a random share of what one study measured.

Set 1
Target: Replicase polyprotein 1ab, main protease (rep, Severe acute respiratory syndrome coronavirus 2, UniProt P0DTD1)
Read-out: enzyme activity
Action: inhibitor
Setting: without DTT
Quantity: IC50
C/C=C1/[C@H](O[C@@H]2O[C@H](CO)[C@@H](O)[C@H](O)[C@H]2O)OC=C(C(=O)OC)[C@H]1CC(=O)OCCc1ccc(O)c(O)c1: 3.4 µM
COc1ncc(-c2ccc3nccc(-c4ccnnc4)c3c2)cc1NS(=O)(=O)c1ccc(F)cc1F: > 20 µM
CC(C)Nc1cccnc1N1CCN(C(=O)c2cc3cc(NS(C)(=O)=O)ccc3[nH]2)CC1: 4 µM
Oc1c(I)cc(I)c(O)c1I: 0.33 µM

Set 2
Target: Centromere-binding protein 1, full length, N-terminal tag (CBF1, Saccharomyces cerevisiae, UniProt P17106, residues 1-351)
UniProt P17106, sequence (whole entry, looked up): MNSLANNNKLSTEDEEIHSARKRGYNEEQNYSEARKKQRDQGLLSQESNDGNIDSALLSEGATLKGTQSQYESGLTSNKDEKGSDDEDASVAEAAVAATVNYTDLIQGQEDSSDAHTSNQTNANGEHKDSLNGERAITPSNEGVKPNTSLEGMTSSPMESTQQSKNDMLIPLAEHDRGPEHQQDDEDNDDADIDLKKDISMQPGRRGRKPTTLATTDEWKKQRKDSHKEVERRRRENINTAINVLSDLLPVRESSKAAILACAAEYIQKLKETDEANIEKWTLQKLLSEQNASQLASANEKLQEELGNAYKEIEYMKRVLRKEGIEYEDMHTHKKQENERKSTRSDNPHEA
Method: protein-binding microarray
Form: double-stranded DNA, one strand shown
Medium: in vitro
Tested at: 0.8 µM
Setting: whole 60-bp probe, no competitor
Reading: higher = stronger binding
Quantity: fluorescence intensity
CTAAGAAGAGTCATTCACATGCAAGTGCGCAACTTCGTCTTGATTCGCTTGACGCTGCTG: 606 a.u.
GAACATAATGTCCCTCATGACCCATCTCTGCCGTAGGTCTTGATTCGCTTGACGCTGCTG: 627 a.u.
GAAAGCAGAAATATGGACGTGATTCTGAGTTTATAGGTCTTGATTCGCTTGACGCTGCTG: 569 a.u.
GAATTCTTCTTATGTAACCACATGATATGCATATAGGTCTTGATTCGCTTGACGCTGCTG: 2880 a.u.
GAAAGCAACAACTGTCACGATTGACCTGATGCATAGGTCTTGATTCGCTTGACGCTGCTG: 536 a.u.
CTATTTGCGCACAAAGTGGTGACGTACAAGTTCTTCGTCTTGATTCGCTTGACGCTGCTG: 540 a.u.
GAAATTGATTTCAATCACGCTTTAAAGTTTTTTTAGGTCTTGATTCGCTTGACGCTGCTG: 808 a.u.
CTAACCAACCGGCGTCACCAAAAGCAAAAATATTTCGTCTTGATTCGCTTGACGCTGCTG: 522 a.u.

Set 3
Target: Replicase polyprotein 1ab, nsp13 helicase (rep, Severe acute respiratory syndrome coronavirus 2, UniProt P0DTD1)
Action: inhibitor
Tested at: 20 µM
Quantity: inhibition
COC(=O)N[C@H](C(=O)N1CCC[C@H]1C(=O)Nc1ccc([C@@H]2CC[C@@H](c3ccc(NC(=O)[C@@H]4CCCN4C(=O)[C@@H](NC(=O)OC)C(C)C)cc3)N2c2ccc(C(C)(C)C)cc2)cc1)C(C)C: -0.37%
CCN(CC)CCN(Cc1ccc(-c2ccc(C(F)(F)F)cc2)cc1)C(=O)Cn1c(SCc2ccc(F)cc2)nc(=O)c2c1CCC2: 11.4%
CC[C@@H]1C(=O)N(C)c2cnc(Nc3ccc(C(=O)N[C@H]4CC[C@H](N5CCN(CC6CC6)CC5)CC4)cc3OC)nc2N1C(C)C: 14.5%
CCOC(=O)c1ncc2[nH]c3ccc(OCc4ccccc4)cc3c2c1COC: 4.46%
COc1ccc(CCN(C)CCCOc2ccc(S(=O)(=O)c3c(C(C)C)c4ccccc4n3C)cc2)cc1OC: 3.42%
CO/N=C1\C[C@]2(C[C@@H]3C[C@@H](C/C=C(\C)C[C@@H](C)/C=C/C=C4\CO[C@@H]5[C@H](O)C(C)=C[C@@H](C(=O)O3)[C@]45O)O2)O[C@H](/C(C)=C/C(C)C)[C@H]1C: 6.23%
CN1C(C(=O)Nc2ccccn2)=C(O)c2ccccc2S1(=O)=O: 5.67%
CCN(CC)CCCCC1CCN(CC(=O)N2c3ccccc3C(=O)Nc3cccnc32)CC1: 1.93%
CC(C)(C#N)c1cc(Cn2cncn2)cc(C(C)(C)C#N)c1: -3.83%
C[C@@H]1NC(=O)[C@@H]2CCCN2C(=O)[C@H](CC(N)=O)NC(=O)[C@@H]2CSSC[C@H](N)C(=O)N[C@H]3CSSC[C@H](NC1=O)C(=O)N[C@@H]([C@@H](C)O)C(=O)NCC(=O)N[C@H](C(=O)N[C@@H](Cc1ccc(O)cc1)C(=O)O)CSSC[C@H](NC(=O)[C@H](Cc1ccc(O)cc1)NC(=O)[C@H](CCC(=O)O)NC3=O)C(=O)N2: 28.4%
O=C(Nc1ccccc1)OCC(CN1CCCCC1)OC(=O)Nc1ccccc1 (stereo not drawn): 1.62%
O=P(O)(O)C(O)(Cn1ccnc1)P(=O)(O)O: 5.94%
Fc1cc(F)c2c(c1)[C@H]1C=CC[C@H]1C(c1cccnc1)N2 (mixture of isomers): 3.41%
N#Cc1ccnc(N2C(=O)CC[C@H]2C(=O)N(c2cncc(F)c2)[C@H](C(=O)NC2CC(F)(F)C2)c2ccccc2Cl)c1: 7.93%
O=C1[C@@H]2[C@H]3CC[C@H](C3)[C@@H]2C(=O)N1CCCCN1CCN(c2ncccn2)CC1: 4.24%
Cn1cc(/C=C2\C(=O)Nc3cccnc32)c2ccccc21: 12.3%
CC[C@H](CC[C@@H](C)[C@H]1CC[C@H]2[C@@H]3CC=C4C[C@@H](O[C@@H]5O[C@H](CO)[C@@H](O)[C@H](O)[C@H]5O)CC[C@]4(C)[C@H]3CC[C@]12C)C(C)C: 2.89%
Nc1ncnc2c1ncn2[C@@H]1O[C@H](COP(=O)(O)O)[C@@H](O)[C@H]1O: 0.47%
CC(CN(C)C)C(C)(O)Cc1ccc(Cl)cc1 (stereo not drawn): 0.23%
Nc1nc(N)nc(NC2CC2)n1: -6.22%
Nc1ccccc1NC(=O)c1ccc(CNc2nccc(-c3cccnc3)n2)cc1: 15.2%
OC[C@H]1O[C@@H](Oc2cc3c(O)cc(O)cc3[o+]c2-c2ccc(O)c(O)c2)[C@H](O)[C@@H](O)[C@@H]1O: 14.9%
C=CCN1C[C@H](C(=O)N(CCCN(C)C)C(=O)NCC)C[C@@H]2c3cccc4[nH]cc(c34)C[C@H]21: 1.34%
Nc1ccc(/N=N/c2ccccc2)c(N)n1: 3.58%

Set 4
Target: RNA binding protein fox-1 homolog 2, RRM domain, GST-SBP tag (RBFOX2, Homo sapiens, UniProt O43251-10, residues 100-194)
Method: RNA Bind-n-Seq
Form: RNA
Medium: in vitro
Tested at: 365 nM
Setting: natural RNA segment, single round, ends assumed
Relative to: no-protein control
Reading: higher = stronger binding
Quantity: RBNS enrichment (R)
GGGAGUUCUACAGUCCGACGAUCUCCCCACGAAUGGGAAAGCACGUUAGUGGGAGGGACGUAGGACACGUGUGGACCGCCAGGCCCUCUCAGUCCAUUUUCCGGGGCUGCUCGGUGCUGCUGUUAAGACGUGAUGGAAUUCUCGGGUGCCAA: 0.696
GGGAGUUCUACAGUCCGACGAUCGAAGCAUGGGCUGGGUUCCGGUUCAUCCUCCUCCACCCUGCCGUGUGUGUGGGCACAAGAGGACAUCUAACCACCUGCUCCUUGGAGGAGGCCCCCAGGGGUGGUAGAGGUGGAAUUCUCGGGUGCCAA: 1.48
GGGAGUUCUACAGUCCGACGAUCCUAAGAGAUAAGAAGGCUGCAAGGAUUGGGGAUAAGGAGUAUAUUUUCAAGCCAAGAACCAGUAGAAAACAGAAAUAAUGGUGCUCCCAAAUAUUCAGUACCUUGGGCAAUGGAAUUCUCGGGUGCCAA: 0.542
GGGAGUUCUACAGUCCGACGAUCCCCAGUGAAGAGCUCAGGCCCUCAGGAAGUGUCUGCUGAAUGGAAUGGCCCAGCAUUAGCCCAGUAUUGGAAAAGACACCAGCCCAGGGGCCCUGACUCGUCACACUUCCUGGAAUUCUCGGGUGCCAA: 0.81
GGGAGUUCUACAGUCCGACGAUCAUUGAGUUCCUUUUUUUAAGAUAGAAAUUCUUUUCAUGGUCCUCUGAAAGAAGCAAUAGUAACAAUCUUAUAUUGGAUCAUGGGGGAAGCAAAUGUGUGUAUUUUAAGUGUGGAAUUCUCGGGUGCCAA: 0.524
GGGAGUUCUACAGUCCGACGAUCCAUUAUGCCUUAGAAAUGCACAUUCUGUAUUUUGUGGGAUGAUAAUCUAAUUCAGUAUAGAAUAUGCUGUUUGGCAAUGAGUUUGUGGCCAGAUUUCAAAUAGGGAGUUAUGGAAUUCUCGGGUGCCAA: 0.626
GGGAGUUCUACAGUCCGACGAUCGUUGGUCAGAAUCUGUAAAGUACUAGCACCUAUCCCUUUGGAGCAGCAAUCAAAUGAUUUAGUCUUGUAAUAAAAUUGCAUUUUAAUUAUCUUAGGUGCUUUUUUUUUCUUGGAAUUCUCGGGUGCCAA: 0.937
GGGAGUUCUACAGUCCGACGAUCAUUUAAAAGGAUGGCAAGUUGCAUCAGAAAGCUUUAUUUUGAGAUGUAAAAAGAUUCCCAAACGUGGUUACAUUAGCCAUUCAUGUAUGUCAGAAGUGCAGAAUUGGGGCUGGAAUUCUCGGGUGCCAA: 0.602

Set 5
Cell line: HEK-293T
Read-out: pseudovirus infection
Organism: VSV pseudotyped with SARS-CoV-2 spike
Tested at: 10 µM
Time: 16 h
Relative to: vehicle-treated
Quantity: GFP-positive cells
CC1=NS(=O)(=O)c2cc(Cl)ccc2N1: 76.8%
Cc1ccc(N(CC2=NCCN2)c2cccc(O)c2)cc1: 91.7%
COc1ccc(-n2nc(C(N)=O)c3c2C(=O)N(c2ccc(N4CCCCC4=O)cc2)CC3)cc1: 81.2%
CN(C)CCc1c[nH]c2ccc(Cn3cncn3)cc12: 107%

Some of these lines once more (set 3):
Cn1cc(/C=C2\C(=O)Nc3cccnc32)c2ccccc21: 12.3%
CC[C@H](CC[C@@H](C)[C@H]1CC[C@H]2[C@@H]3CC=C4C[C@@H](O[C@@H]5O[C@H](CO)[C@@H](O)[C@H](O)[C@H]5O)CC[C@]4(C)[C@H]3CC[C@]12C)C(C)C: 2.89%
Nc1ncnc2c1ncn2[C@@H]1O[C@H](COP(=O)(O)O)[C@@H](O)[C@H]1O: 0.47%
CC(CN(C)C)C(C)(O)Cc1ccc(Cl)cc1 (stereo not drawn): 0.23%
Nc1nc(N)nc(NC2CC2)n1: -6.22%
Nc1ccccc1NC(=O)c1ccc(CNc2nccc(-c3cccnc3)n2)cc1: 15.2%
OC[C@H]1O[C@@H](Oc2cc3c(O)cc(O)cc3[o+]c2-c2ccc(O)c(O)c2)[C@H](O)[C@@H](O)[C@@H]1O: 14.9%
